Measurements gathered from unrelated publications.
Every numbered part comes from another study and shows a few of its results, in no order. Substitutions count along the parent as printed.

Block 1
Target: CCNF, cyclin fold, Cln2 fusion (human)
Technique: yeast growth competition, sequencing
Matrix: yeast
Setting: weak parent motif
Relative to: not given
Reading: higher = stronger binding
Endpoint: normalised enrichment score
Starting sequence: WEE2 docking peptide (human); KELRQKLNFSYCE
Variant = KELRQKANFSYCE [L7A]; value = 0.319
Variant = KELAQKLNFSYCE [R4A]; value = 0.431
Variant = KELRAKLNFSYCE [Q5A]; value = 0.755
Variant = KALRQKLNFSYCE [E2A]; value = 1.76
Variant = KELRQKLNFAYCE [S10A]; value = 1.04
Variant = KELRQKLNFSYCA [E13A]; value = 1.27

Block 2
Target: ABI1, truncated, D143A, DHFR fusion (Arabidopsis thaliana, UniProt P49597)
Technique: DHFR PCA, dose-response
Matrix: yeast
Setting: Hill fit, mean, not affinity
Added: (+)-ABA, dose series
Reading: lower = more sensitive
Endpoint: ABA EC50
Starting sequence: PYL1, truncated, DHFR fusion (Arabidopsis thaliana, UniProt Q8VZS8); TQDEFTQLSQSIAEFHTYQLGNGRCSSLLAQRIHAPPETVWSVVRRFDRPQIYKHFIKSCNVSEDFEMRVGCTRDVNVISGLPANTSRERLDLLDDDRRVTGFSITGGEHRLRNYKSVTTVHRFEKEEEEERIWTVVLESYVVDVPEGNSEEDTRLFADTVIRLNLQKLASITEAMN
Variant = G148H; value = 12.9 µM
Variant = L28H; value = 129 µM
Variant = G148C; value = 35.3 µM
Variant = L20F; value = 4.72 µM
Variant = R132E; value = 0.765 µM
Variant = R155Q; value = 6.87 µM
Variant = F66P; value = 18.5 µM
Variant = L8W; value = 4.88 µM
Variant = T17Y; value = 27.2 µM
Variant = D96L; value = 218 µM
Variant = H16G; value = 830 µM
Variant = E125N; value = 2.27 µM
Variant = Y115W; value = 70.1 µM
Variant = P36V; value = 26.1 µM
Variant = S63A; value = 2.72 µM
Variant = D48S; value = 53.2 µM
Variant = N61F; value = 2.39 µM
Variant = T160K; value = 9.74 µM
Variant = F15C; value = 25.8 µM
Variant = M68P; value = 5.79 µM

Block 3
Target: Prothrombin, mature alpha-thrombin (F2, Homo sapiens, UniProt P00734)
Technique: aptamer microarray, sandwich
Molecule type: DNA with 2'F-ANA
Matrix: in vitro
Tested at: 200 nM
Setting: whole 15-mer aptamer, many near background
Added: Cy3 exosite-II aptamer, 400 nM
Reading: higher = stronger binding
Endpoint: mean fluorescence intensity
Oligonucleotide: GGTTGGTGTGGTTGG
Modification = 2'F-ANA at 4 6 7 8 12 13; value = 443 a.u.
Modification = 2'F-ANA at 2 6 8 9 10 11 12 13; value = 125 a.u.
Modification = 2'F-ANA at 1 7 11 14; value = 56.6 a.u.
Modification = 2'F-ANA at 1 2 5 7 8 9 10 12 14; value = 48.5 a.u.
Modification = 2'F-ANA at 1 2 4 10 12 13 14; value = 45.9 a.u.
Modification = 2'F-ANA at 4 5 8 9 10; value = 50.3 a.u.
Modification = 2'F-ANA at 1 2 3 5 9 10 14 15; value = 49.8 a.u.
Modification = 2'F-ANA at 1 3 4 9 11 12 15; value = 284 a.u.
Modification = 2'F-ANA at 1 13 14 15; value = 70 a.u.
Modification = 2'F-ANA at 3 5 7 8 10 11 12 13; value = 112 a.u.
Modification = 2'F-ANA at 2 3 6 7 8 9 10 11 12 13 14 15; value = 250 a.u.
Modification = 2'F-ANA at 1 9 12 14; value = 60.7 a.u.
Modification = 2'F-ANA at 6 7 8 9 10 11 14; value = 129 a.u.
Modification = 2'F-ANA at 1 2 5 6 7 8 14 15; value = 51.4 a.u.
Modification = 2'F-ANA at 1 2 4 5 6 7 8 9 10 13; value = 49.8 a.u.
Modification = 2'F-ANA at 3 6 8 9 10 11 12 13 15; value = 463 a.u.
Modification = 2'F-ANA at 3 8 10 11 12 14 15; value = 353 a.u.
Modification = 2'F-ANA at 5 6 10 14; value = 43.7 a.u.
Modification = 2'F-ANA at 1 2 3 8 10 12 13 15; value = 96.6 a.u.
Modification = 2'F-ANA at 1 2 7 13; value = 120 a.u.
Modification = 2'F-ANA at 2 3 4 5 7 8 11; value = 91.2 a.u.
Modification = 2'F-ANA at 1 4 7 8 9 12 13 15; value = 214 a.u.
Modification = 2'F-ANA at 2 3 4 6 7 8 11 12 13 14; value = 288 a.u.
Modification = 2'F-ANA at 2 4 5 9 10; value = 84.9 a.u.
Modification = 2'F-ANA at 2 4 5 7 8 9 12 13; value = 93.4 a.u.

Block 4
Target: RNA binding protein fox-1 homolog 2, RRM domain, GST-SBP tag (RBFOX2, Homo sapiens, UniProt O43251-10, residues 100-194)
Technique: RNA Bind-n-Seq
Molecule type: RNA
Matrix: in vitro
Tested at: 365 nM
Setting: natural RNA segment, single round, ends assumed
Relative to: no-protein control
Reading: higher = stronger binding
Endpoint: RBNS enrichment (R)
Constant ends, left off below: GGGAGUUCUACAGUCCGACGAUC … UGGAAUUCUCGGGUGCCAA
Residues (chain): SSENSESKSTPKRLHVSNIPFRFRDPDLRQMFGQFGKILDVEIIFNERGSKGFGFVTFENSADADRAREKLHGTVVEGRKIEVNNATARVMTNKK
Oligonucleotide = GCAUAAGUCAUAGCUCUAUUCUUAGUGUCAUAAAGUGUAGCUAAUUUAUAAGCUCUAAGUAAUCAGCUUUAUCUAAUUUGAGGGCAUUAAAAUUACUGCCUAGAACUUUG; value = 0.441
Oligonucleotide = CGACAGGCUAGGGUUAGGCAAUGUACCACAGGCCUGAUAGUCCCUGGCUCCUAGCUGCCCAUAGGCUCCUAGUGCAUGAGGAAUUCUGAGGAGAGGACAAGUGGGGACAU; value = 17.1
Oligonucleotide = CAGUUCACUCUCCUGACUGUUCAGAAGCAUUUUGCUCUCUUUUGCAUUUUCUUUUACCUUUUUUUUCUAAUACUGCUUUGGUACUAGCCAGUGUGGGGAAGAGAUACAGU; value = 3.19
Oligonucleotide = CCCAAACUGCCCGGUGGUCCGCCUCUCAGGACAGAGGUGCAACAUUUGGGAGUUUAUGCAAGGUGGCUGGGCUUUUAAGAACAACAUGGACAUCAGAAAUCACCAGAACC; value = 0.372
Oligonucleotide = UGCCGUGCCGCCUGCACUCCUCAGGGCAGCCUCCCCCGGCUCUACGGGGGCCGCGUGGUGCCAUCCCCAGGGGGCAUGACCAGAUGCGUCCCAAGAUGUUGAUUUUUACU; value = 0.412
Oligonucleotide = AGUGAUCCCAGGUUUCCUCCUGGCCCGUCCCAUGGUCCCUCCACAGGAGUGUGAGAGGAUGGGGGAAGCACUGUGGGAAGACCACCAAAGAUGGCUGGACAGUGGGAGAG; value = 0.312
Oligonucleotide = CUACAUACCUUUCCCAUCACACAUGAAAAAAGAAAAAAACAAAUCUGCUCAGAGUGCCUCUGGUUUCUUUUCAAAUUGUGGGGGGAAGGAUUAAAAACUUCAAAUGAUGG; value = 0.451
Oligonucleotide = UCUCCAUAGAGAAUGGUGCUUUGUCCAAGAAAACGUAUGAGUUUCUGAUUCUCCGGGAGCCGUUCAAUGGUGAGGUUGAUGGGAAGACUUCCUUCCCAAAGAAAAUAGAU; value = 0.323
Oligonucleotide = CCGUGAAGUGUGAGAAAACAAGGAGGGGAACAAAUGGGACUUACCAAGCAAGGUCAUUGUUGUGAAAAGUCUGUAAAUGCUUCUAACUCUUCCCCCUCUUAAAAUCAUAA; value = 0.406
Oligonucleotide = UGUUUUCAGUUUUCAUUUCGACAAGCACUGUAAUUAUAGCUGUUAGAAUAAAGUCUCUUAACUAUUUAUGGGCUUGUGUGUCAGUGCCACCACUGCCAGGCUUCUUCCUG; value = 0.364
Oligonucleotide = UUUAUUUUUAGGUUAUUUUCUUGGAAGGUUGGGAAAAGAUGUUUGUUUUAACAGGUCAUGUACUACGUUGUUGUUUUCAUUUCUGUUAUAAGUAAAACUAAAAGCACAGA; value = 0.646
Oligonucleotide = GCUAGUCAGGAUUGAUAAACAGCUGGGCACACCGAAACAGUGUACCAACGAAUUCACCAACCAGGGGUUUCUUUCCCUACCCUUUGUGAAAACCAAUCAAUUACUAGAUG; value = 0.264

Block 5
Target: Ras GTPase-activating protein-binding protein 1, full length (G3BP1, Homo sapiens, UniProt Q13283)
Sequence of UniProt Q13283 (whole entry, looked up): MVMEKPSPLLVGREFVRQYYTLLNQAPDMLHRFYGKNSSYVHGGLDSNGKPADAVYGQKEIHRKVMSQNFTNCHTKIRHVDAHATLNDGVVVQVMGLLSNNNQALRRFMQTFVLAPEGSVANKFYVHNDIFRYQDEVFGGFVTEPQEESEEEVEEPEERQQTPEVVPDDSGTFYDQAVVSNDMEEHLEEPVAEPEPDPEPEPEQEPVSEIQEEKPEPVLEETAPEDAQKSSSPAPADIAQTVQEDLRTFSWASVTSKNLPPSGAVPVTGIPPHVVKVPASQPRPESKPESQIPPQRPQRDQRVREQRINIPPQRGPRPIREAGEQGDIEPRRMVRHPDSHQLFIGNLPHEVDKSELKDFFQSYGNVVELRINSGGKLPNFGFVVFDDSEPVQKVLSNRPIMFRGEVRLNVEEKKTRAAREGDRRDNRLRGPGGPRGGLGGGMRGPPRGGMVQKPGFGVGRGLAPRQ
Technique: RNA Bind-n-Seq
Molecule type: RNA
Matrix: in vitro
Tested at: 200 nM
Setting: whole 134-nt RNA, ends assumed
Added: 150 mM LiCl
Relative to: input library
Reading: higher = stronger binding
Endpoint: log2 enrichment
Each molecule: 7-deaza-guanosine replaces G
Constant ends, left off below: GGGAGUUCUACAGUCCGACGAUC … UGGAAUUCUCGGGUGUCAAGG
Oligonucleotide = UGCUUCAUCGCCUUGUGCUCCUGCCCCUGGGAGCUGUGGAUCCCAGAUCCAGAUGACAGCCCACCUUGCUGGCAGGAUGCGCCAAUCCCC; value = 0.922
Oligonucleotide = UCAAGUCCUGUGCUACACAUCGUAUGUACCGAAUCGGUGGUUUUUUUGGAAAGGAAAGUAUUAUGUUACGCCGUUCGGAUCUGCACUUCC; value = -0.178
Oligonucleotide = CCUGUGCUACACAUCGUAUGUACCGAAUCGGGAAAAAAGGAAAAAAGGGGAAAAAAGGGGAAAGUAUUAUGUUACGCCGUUCGGAUCUGC; value = 0.249
Oligonucleotide = UGGGGACAAGCUGACAGCAGCCAUGGCGAGCGGCAGUGGAGACAGCGUCACCCGUCGGAGCGUGGCAUCACAGUUUUUCACUCAAGAGGA; value = -0.279
Oligonucleotide = UGGCCCUGGUGGCACGCGGGGAGGAAGAGGUGGCCUCAUGGAUCGUGGUGGUCCCGGUGGAAUGUUCAGAGGUGGCCGUGGUGGAGACAG; value = 0.578
Oligonucleotide = UGGCCCUGGUGGCAUGCGGGGAGGAAGAGGUGGCCUCAUGGAUCGUGGUGGUCCCGGUGGUAUGUUCAGAGGUGGCCGUGGUGGAGACAG; value = -0.117
Oligonucleotide = UCAAGUCCUGUGCUACACAUCGUAUGUACCGAAUCGGGGUUUGGUUUGGUUUGGAAAGUAUUAUGUUACGCCGUUCGGAUCUGCACUUCC; value = -0.0558

Other studies, line by line
Substance = PhoQ, residues 284 288 289 292 302 303 SSYNSA; target = PhoP, residues 12 14 15 18 19 HEGLL (Escherichia coli, UniProt P23836); assay = Sort-seq, measured: YFP reporter; system = E. coli; conditions = PhoQ-PhoP variant library, added: 10 µM Mg2+; scale = relative to: high Mg2+ state, higher = stronger signaling; endpoint = fold induction; value = 1

Excerpt of the above (block 4):
Oligonucleotide = GCAUAAGUCAUAGCUCUAUUCUUAGUGUCAUAAAGUGUAGCUAAUUUAUAAGCUCUAAGUAAUCAGCUUUAUCUAAUUUGAGGGCAUUAAAAUUACUGCCUAGAACUUUG; value = 0.441
Oligonucleotide = CGACAGGCUAGGGUUAGGCAAUGUACCACAGGCCUGAUAGUCCCUGGCUCCUAGCUGCCCAUAGGCUCCUAGUGCAUGAGGAAUUCUGAGGAGAGGACAAGUGGGGACAU; value = 17.1
Oligonucleotide = CAGUUCACUCUCCUGACUGUUCAGAAGCAUUUUGCUCUCUUUUGCAUUUUCUUUUACCUUUUUUUUCUAAUACUGCUUUGGUACUAGCCAGUGUGGGGAAGAGAUACAGU; value = 3.19
Oligonucleotide = CCCAAACUGCCCGGUGGUCCGCCUCUCAGGACAGAGGUGCAACAUUUGGGAGUUUAUGCAAGGUGGCUGGGCUUUUAAGAACAACAUGGACAUCAGAAAUCACCAGAACC; value = 0.372
Oligonucleotide = UGCCGUGCCGCCUGCACUCCUCAGGGCAGCCUCCCCCGGCUCUACGGGGGCCGCGUGGUGCCAUCCCCAGGGGGCAUGACCAGAUGCGUCCCAAGAUGUUGAUUUUUACU; value = 0.412
Oligonucleotide = AGUGAUCCCAGGUUUCCUCCUGGCCCGUCCCAUGGUCCCUCCACAGGAGUGUGAGAGGAUGGGGGAAGCACUGUGGGAAGACCACCAAAGAUGGCUGGACAGUGGGAGAG; value = 0.312
Oligonucleotide = CUACAUACCUUUCCCAUCACACAUGAAAAAAGAAAAAAACAAAUCUGCUCAGAGUGCCUCUGGUUUCUUUUCAAAUUGUGGGGGGAAGGAUUAAAAACUUCAAAUGAUGG; value = 0.451
Oligonucleotide = UCUCCAUAGAGAAUGGUGCUUUGUCCAAGAAAACGUAUGAGUUUCUGAUUCUCCGGGAGCCGUUCAAUGGUGAGGUUGAUGGGAAGACUUCCUUCCCAAAGAAAAUAGAU; value = 0.323
Oligonucleotide = CCGUGAAGUGUGAGAAAACAAGGAGGGGAACAAAUGGGACUUACCAAGCAAGGUCAUUGUUGUGAAAAGUCUGUAAAUGCUUCUAACUCUUCCCCCUCUUAAAAUCAUAA; value = 0.406
Oligonucleotide = UGUUUUCAGUUUUCAUUUCGACAAGCACUGUAAUUAUAGCUGUUAGAAUAAAGUCUCUUAACUAUUUAUGGGCUUGUGUGUCAGUGCCACCACUGCCAGGCUUCUUCCUG; value = 0.364
Oligonucleotide = UUUAUUUUUAGGUUAUUUUCUUGGAAGGUUGGGAAAAGAUGUUUGUUUUAACAGGUCAUGUACUACGUUGUUGUUUUCAUUUCUGUUAUAAGUAAAACUAAAAGCACAGA; value = 0.646
Oligonucleotide = GCUAGUCAGGAUUGAUAAACAGCUGGGCACACCGAAACAGUGUACCAACGAAUUCACCAACCAGGGGUUUCUUUCCCUACCCUUUGUGAAAACCAAUCAAUUACUAGAUG; value = 0.264
